# Measured values gathered from unrelated publications.
# Parts stem from different laboratories: compare values within a part only. Several values in a cell are separate wells, animals, samples, runs or records.

# Sample 1
# Target: LIM domain kinase 1 (LIMK1, Homo sapiens, UniProt P53667)
# Sequence of UniProt P53667 (whole entry, looked up): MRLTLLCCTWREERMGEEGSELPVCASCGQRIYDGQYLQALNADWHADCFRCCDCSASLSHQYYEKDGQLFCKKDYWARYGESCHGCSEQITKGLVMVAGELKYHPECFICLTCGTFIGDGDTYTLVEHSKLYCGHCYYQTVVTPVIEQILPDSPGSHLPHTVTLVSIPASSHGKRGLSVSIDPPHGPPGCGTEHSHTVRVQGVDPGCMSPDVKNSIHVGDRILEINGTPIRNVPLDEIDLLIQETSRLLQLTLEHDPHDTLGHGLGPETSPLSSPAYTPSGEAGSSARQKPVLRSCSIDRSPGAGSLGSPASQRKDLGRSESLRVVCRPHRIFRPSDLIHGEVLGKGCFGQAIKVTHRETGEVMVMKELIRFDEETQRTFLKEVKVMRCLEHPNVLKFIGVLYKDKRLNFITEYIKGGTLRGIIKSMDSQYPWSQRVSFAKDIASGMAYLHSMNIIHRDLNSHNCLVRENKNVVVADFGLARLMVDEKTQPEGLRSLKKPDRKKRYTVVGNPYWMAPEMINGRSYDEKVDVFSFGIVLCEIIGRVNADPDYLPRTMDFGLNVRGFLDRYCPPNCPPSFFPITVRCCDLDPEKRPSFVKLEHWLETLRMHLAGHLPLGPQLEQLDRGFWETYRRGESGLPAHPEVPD
# Read-out: enzyme activity
# Mode: inhibitor
# Concentration: 0.5 µM
# Reference: control
Structure (SMILES),remaining activity [%]
c1ccc(-c2[nH]ncc2-c2ccnc3ccccc23)nc1,103
O=c1cc(-c2cccc3c2Sc2ccccc2S3)oc(N2CCOCC2)c1,103
COc1cc2c(cc1OC)-c1[nH]nc(Nc3cccc(F)c3)c1C2,23.3
CN([C@@H](Cc1ccc(OS(=O)(=O)c2cccc3cnccc23)cc1)C(=O)N1CCN(c2ccccc2)CC1)S(=O)(=O)c1cccc2cnccc12,104
N#C/C(=C\c1ccc(O)c(O)c1)C(=O)NCc1ccccc1,97
CCN(CC)CCNC(=O)c1c(C)[nH]c(/C=C2\C(=O)Nc3ccc(F)cc32)c1C,94.3
N#Cc1c(NC(=O)c2cccc3ccccc23)sc2c1CCCC2,102
COc1cc2ncnc(Nc3cccc(Cl)c3)c2cc1OC,72.4
CCN(CC)C(=O)c1ccc(Nc2nc(OCC3CCCCC3)c3[nH]cnc3n2)cc1,35.1
O=C(NC(NC(=S)Nc1ccc(F)c([N+](=O)[O-])c1)C(Cl)(Cl)Cl)C(c1ccccc1)c1ccccc1 (centres unmarked),94.5
O=C(Nc1cccc(Nc2nccc(Nc3cccc(C(F)(F)F)c3)n2)c1)C1CC1,45.1
Cc1cc2ncc(-c3ccccc3)nc2cc1C,102

# Sample 2
# Cell line: normal organoid sample F
# Technique: CellTiter-Glo
# Species: human
# Matrix: normal-adjacent epithelium
# Concentration: 1 µM
# Reference: DMSO
Structure (SMILES),viability
Cn1cnc2c(F)c(Nc3ccc(Br)cc3Cl)c(C(=O)NOCCO)cc21,54.5% and 78.3%
Cn1cncc1[C@@](O)(COc1ccc(C#N)cc1-c1ccc(OC(F)(F)F)cc1)c1ccc(C#N)cc1,113% and 102%
CC(=O)N1CCC(c2ccc(C(=O)NC3=NCCN3)cc2C(F)(F)F)CC1,114% and 112%
CO[C@H]1CC[C@H](CNc2ccc(S(=O)(=O)NC(=O)c3ccc(N4CCN(CC5=C(c6ccc(Cl)cc6)CC(C)(C)CC5)CC4)cc3Oc3cnc4[nH]ccc4c3)cc2[N+](=O)[O-])CC1,59.6% and 73.4%
Cc1cn(-c2cc(NC(=O)c3ccc4c(c3)CN(c3cncnc3)C[C@@H]4C)cc(C(F)(F)F)c2)cn1,93.9% and 119%
CN1CCN(Cc2ccc(Nc3ncc(Cl)c(Nc4ccccc4S(=O)(=O)N(C)C)n3)cc2)CC1,0.5% and 0.552%
Cc1nc(C2CCN(C(=O)c3ccc(OC(F)(F)F)cc3N)CC2)c2ncc(N3CCN(C)CC3)cc2n1,78% and 139%
CN1CCN(c2cnc3c(C4CCN(C(=O)c5ccc(OC(F)(F)F)cc5N)CC4)ncnc3c2)CC1,109% and 93.9%
C[C@@H](NC(=O)Nc1cc2[nH]ncc2c(CO)n1)c1ccccc1,103% and 96.2%
CCC(=O)N[C@H]1CC[C@@H](C(=O)N(C)c2ccc(-c3nc4ccccc4o3)cc2)C1,12.1% and 11%
C[C@@H](c1cccc(C#N)c1)n1cc(Cl)cc(C(N)=O)c1=N,76.8% and 104%
Cc1noc([C@H]2C[C@@H](c3ccc(C(F)(F)F)cc3)CN(C(=O)N3CCS(=O)(=O)C3)C2)n1,114% and 87.1%

# Sample 3
# SMILES: CC(C)n1cnc(-c2ccc(F)cc2)c1-c1ncc(C(=O)Nc2ccc(N3CCN(C)CC3)cc2)[nH]1
# Technique: phase 2a trial
# Species: idiopathic pulmonary fibrosis patients
refers to,dose,notes,adverse event incidence [%]
ECG ST segment abnormal,60 mg once daily,grade 3,0
QRS axis abnormal,60 mg once daily,grade 1,0
appendicitis,60 mg once daily,grade 2,0
arthritis,60 mg once daily,grade 2,0
gingivitis,60 mg once daily,grade 4,0
liver injury,60 mg once daily,grade 1,0
synovitis,30 mg once daily,grade 3,0
immunoglobulins increased,dose not given,"grade 4, all arms pooled",0
synovitis,30 mg once daily,grade 5,0

# Sample 4
# Cell line: mouse MPNST tumor cells
# Technique: high-content nuclear imaging
# Refers to: cell number
# Concentration: 10 µM
# Time: 12 h
# Notes: mean of 2 replicates
# Reference: plate mean
# Direction: higher = more cells
Structure (SMILES),nuclei count
c1cnc2cc3c(cc2n1)[C@@H]1CNC[C@H]3C1,1.81 z-score and -0.756 z-score
CN[C@@H]1[C@H](O)[C@H](NC)[C@H]2O[C@@]3(O)C(=O)C[C@@H](C)O[C@H]3O[C@@H]2[C@H]1O,0.753 z-score
c1ccc(-c2ccc(CNc3nc(-c4ccccn4)nnc3-c3ccccc3)cc2)cc1,0.814 z-score
O=C(NC[C@H](O)CN1CCc2ccccc2C1)c1ccnc(NC2CCC2)c1,4.73 z-score and 4.01 z-score
CCN1CCCC(OC(=O)C(c2ccccc2)c2ccccc2)C1 (centres unmarked),1.69 z-score
CCOC(=O)C1=C[C@@H](OC(CC)CC)[C@H](NC(C)=O)[C@@H](N)C1,1.55 z-score
CCCCN(CCCC)C(=O)CN1C[C@H](c2ccc3c(c2)OCO3)[C@@H](C(=O)O)[C@@H]1c1ccc(OC)cc1,2.16 z-score
O=C(Nc1cccc2c(=O)cc(-c3nnn[nH]3)oc12)c1ccc(OCCCCc2ccccc2)cc1,0.423 z-score
CC(C)(C)c1cc(C(C)(C)C)nc(N2CCn3c(nnc3-c3ccc(OC(F)(F)F)cc3)C2)n1,4.17 z-score
COc1ccc(C[C@H](NC(C)=O)C(=O)N[C@H]2[C@@H](O)[C@H](n3cnc4c(N(C)C)ncnc43)O[C@@H]2CO)cc1,1 z-score
COc1ccc(-c2cnc3c(-c4cccc5ncccc45)cnn3c2)cc1,-0.208 z-score

# Repeated from above (sample 2):
Structure (SMILES),viability
CCC(=O)N[C@H]1CC[C@@H](C(=O)N(C)c2ccc(-c3nc4ccccc4o3)cc2)C1,12.1% and 11%
Cn1cnc2c(F)c(Nc3ccc(Br)cc3Cl)c(C(=O)NOCCO)cc21,54.5% and 78.3%
Cc1noc([C@H]2C[C@@H](c3ccc(C(F)(F)F)cc3)CN(C(=O)N3CCS(=O)(=O)C3)C2)n1,114% and 87.1%
CN1CCN(Cc2ccc(Nc3ncc(Cl)c(Nc4ccccc4S(=O)(=O)N(C)C)n3)cc2)CC1,0.5% and 0.552%
C[C@@H](NC(=O)Nc1cc2[nH]ncc2c(CO)n1)c1ccccc1,103% and 96.2%
